# Results pooled from the literature.
# Lines come from different studies, so protocols differ. ± gives the spread as reported.
# SPT15/TOA1/TOA2/SUA7 1-240; 1-286; 1-122; 1-345: SPT15/TOA1/TOA2/SUA7 1-240; 1-286; 1-122; 1-345 (Saccharomyces cerevisiae)
# Fibroin-modulator-binding protein-1: Fibroin-modulator-binding protein-1 99-193 (Bombyx mori, UniProt Q5FBS0)
# allR full length assumed: allR full length assumed (Escherichia coli, UniProt P0ACN4)
# UniProt P0ACN4, sequence (whole entry, looked up): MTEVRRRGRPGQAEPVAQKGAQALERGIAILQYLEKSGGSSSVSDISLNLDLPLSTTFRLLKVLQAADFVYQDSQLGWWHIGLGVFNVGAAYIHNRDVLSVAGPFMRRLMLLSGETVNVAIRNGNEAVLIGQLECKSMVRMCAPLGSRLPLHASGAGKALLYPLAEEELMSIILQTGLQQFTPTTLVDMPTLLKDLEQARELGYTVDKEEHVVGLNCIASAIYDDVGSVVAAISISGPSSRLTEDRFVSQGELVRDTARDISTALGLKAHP
# UniProt P46063, sequence (whole entry, unmodified, looked up): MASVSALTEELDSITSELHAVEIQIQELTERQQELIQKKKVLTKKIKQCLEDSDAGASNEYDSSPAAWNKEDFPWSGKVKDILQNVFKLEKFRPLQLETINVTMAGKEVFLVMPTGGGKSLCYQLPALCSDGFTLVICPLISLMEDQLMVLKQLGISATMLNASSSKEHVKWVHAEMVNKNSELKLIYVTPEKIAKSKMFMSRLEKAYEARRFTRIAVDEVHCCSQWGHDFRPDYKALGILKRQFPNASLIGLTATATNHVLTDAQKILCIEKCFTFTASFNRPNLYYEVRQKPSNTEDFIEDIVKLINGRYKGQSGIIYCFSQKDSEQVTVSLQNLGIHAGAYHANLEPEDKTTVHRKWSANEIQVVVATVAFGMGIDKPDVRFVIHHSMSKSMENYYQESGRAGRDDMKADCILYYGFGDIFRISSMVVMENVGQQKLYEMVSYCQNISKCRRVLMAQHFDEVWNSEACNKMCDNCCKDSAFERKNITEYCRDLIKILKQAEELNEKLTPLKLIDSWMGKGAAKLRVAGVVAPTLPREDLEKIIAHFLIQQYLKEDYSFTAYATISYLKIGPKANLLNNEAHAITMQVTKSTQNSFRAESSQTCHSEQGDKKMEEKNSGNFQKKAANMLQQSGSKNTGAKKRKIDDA
# UniProt P0A7G6, sequence (whole entry, looked up): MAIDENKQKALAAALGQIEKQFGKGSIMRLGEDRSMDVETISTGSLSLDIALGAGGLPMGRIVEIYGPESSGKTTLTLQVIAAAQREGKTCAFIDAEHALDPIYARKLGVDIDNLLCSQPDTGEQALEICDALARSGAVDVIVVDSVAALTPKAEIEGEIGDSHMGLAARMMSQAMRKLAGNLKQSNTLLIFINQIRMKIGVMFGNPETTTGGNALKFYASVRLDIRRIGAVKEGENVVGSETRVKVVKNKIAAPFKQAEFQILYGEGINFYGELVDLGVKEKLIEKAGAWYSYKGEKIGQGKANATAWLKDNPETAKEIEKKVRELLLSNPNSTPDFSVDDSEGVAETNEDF
# UniProt P13500, sequence (whole entry, looked up): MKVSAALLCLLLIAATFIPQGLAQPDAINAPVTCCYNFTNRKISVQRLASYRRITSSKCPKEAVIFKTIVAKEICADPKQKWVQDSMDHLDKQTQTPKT
# UniProt Q00059, sequence (whole entry, looked up): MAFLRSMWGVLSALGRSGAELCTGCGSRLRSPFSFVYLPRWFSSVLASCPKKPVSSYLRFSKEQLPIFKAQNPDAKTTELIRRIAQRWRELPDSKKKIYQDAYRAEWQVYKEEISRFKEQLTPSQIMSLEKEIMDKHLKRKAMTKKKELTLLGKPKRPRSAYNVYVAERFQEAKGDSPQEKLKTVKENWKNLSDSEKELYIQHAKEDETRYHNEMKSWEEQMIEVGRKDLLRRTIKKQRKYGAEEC
# UniProt Q01844, sequence (whole entry, looked up): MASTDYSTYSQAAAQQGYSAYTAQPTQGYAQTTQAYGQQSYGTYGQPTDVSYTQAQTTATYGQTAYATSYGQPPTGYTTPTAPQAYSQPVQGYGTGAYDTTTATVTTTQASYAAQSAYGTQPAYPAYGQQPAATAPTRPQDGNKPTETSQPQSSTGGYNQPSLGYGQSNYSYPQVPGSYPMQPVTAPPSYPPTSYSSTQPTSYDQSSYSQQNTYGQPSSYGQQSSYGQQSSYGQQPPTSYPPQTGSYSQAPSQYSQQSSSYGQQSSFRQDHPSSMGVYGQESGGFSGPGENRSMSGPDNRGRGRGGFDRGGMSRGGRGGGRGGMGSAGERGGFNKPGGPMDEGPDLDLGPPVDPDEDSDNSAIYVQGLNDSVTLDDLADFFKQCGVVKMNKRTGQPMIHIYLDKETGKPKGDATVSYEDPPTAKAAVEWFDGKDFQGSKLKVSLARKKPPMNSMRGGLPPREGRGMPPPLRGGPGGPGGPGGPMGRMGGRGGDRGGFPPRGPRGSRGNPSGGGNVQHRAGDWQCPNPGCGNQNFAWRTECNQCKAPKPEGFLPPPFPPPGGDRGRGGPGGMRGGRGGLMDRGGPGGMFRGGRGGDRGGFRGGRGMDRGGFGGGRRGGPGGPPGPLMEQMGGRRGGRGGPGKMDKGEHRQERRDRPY
# UniProt P04150, sequence (whole entry, looked up): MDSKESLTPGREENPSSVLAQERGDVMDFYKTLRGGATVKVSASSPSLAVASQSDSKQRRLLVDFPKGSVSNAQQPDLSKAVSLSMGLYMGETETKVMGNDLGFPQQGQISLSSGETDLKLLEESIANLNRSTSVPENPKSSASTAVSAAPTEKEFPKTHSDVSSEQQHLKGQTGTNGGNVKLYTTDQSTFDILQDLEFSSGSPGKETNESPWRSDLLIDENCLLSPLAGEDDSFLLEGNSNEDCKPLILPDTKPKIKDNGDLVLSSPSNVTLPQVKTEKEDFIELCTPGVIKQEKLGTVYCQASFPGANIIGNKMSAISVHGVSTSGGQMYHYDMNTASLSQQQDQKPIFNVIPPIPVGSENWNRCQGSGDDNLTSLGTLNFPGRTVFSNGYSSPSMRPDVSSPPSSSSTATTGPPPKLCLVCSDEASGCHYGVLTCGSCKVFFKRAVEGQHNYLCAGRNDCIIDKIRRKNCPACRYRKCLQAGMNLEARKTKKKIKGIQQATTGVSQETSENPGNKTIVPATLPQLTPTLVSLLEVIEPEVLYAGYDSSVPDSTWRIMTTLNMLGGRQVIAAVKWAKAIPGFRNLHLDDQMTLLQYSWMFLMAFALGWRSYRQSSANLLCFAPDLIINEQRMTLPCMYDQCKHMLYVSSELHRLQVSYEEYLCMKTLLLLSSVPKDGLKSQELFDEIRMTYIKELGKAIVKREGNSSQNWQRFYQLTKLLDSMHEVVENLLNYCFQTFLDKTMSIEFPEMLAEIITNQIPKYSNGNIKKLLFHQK
# UniProt P11632, sequence (whole entry, looked up): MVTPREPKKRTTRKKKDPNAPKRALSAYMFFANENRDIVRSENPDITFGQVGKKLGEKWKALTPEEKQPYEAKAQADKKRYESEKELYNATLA
# UniProt P32787, sequence (whole entry, unmodified, looked up): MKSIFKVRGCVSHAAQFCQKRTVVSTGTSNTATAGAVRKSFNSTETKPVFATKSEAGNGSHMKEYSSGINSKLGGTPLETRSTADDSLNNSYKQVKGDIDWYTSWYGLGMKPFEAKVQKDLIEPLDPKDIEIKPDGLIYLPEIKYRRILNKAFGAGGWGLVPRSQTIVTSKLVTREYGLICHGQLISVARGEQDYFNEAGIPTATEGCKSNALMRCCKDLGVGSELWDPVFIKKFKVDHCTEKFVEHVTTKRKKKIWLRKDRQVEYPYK
Sequence,target,assay,test system,setting,Kd [nM]
GAATTCCTATGAAGTAATGTGGAGCTCCGTTCGTCTCAAGTCAATCGGTCC (dsDNA; 5'-amino-C6 primer),SPT15/TOA1/TOA2/SUA7 1-240; 1-286; 1-122; 1-345,array,"double-stranded DNA, one strand shown",TBP:TFIIA:TFIIB ternary complex,2.25 ± 0.36
GCTCAGTTCCCTGCTGGAAACGCCGCGGTCGTAGTAATATAGATAGGTCTGGATCAGATGTTGTTTCGGGGATTGTCAACAGCTGAGC (dsDNA),"EWSR1 1-656 (Homo sapiens, UniProt Q01844)",EMSA,"double-stranded DNA, one strand shown",,103 ± 5
TTGATAAGAGGTCATTTTTGCGGATGGCTTAGAGCTTAATTGCTGAATCTGGTGCTGTAGCTCAACATGTTTTAAATATGCAA (ssDNA),"MGM101 23-269 R215A (Saccharomyces cerevisiae, UniProt P32787)",fluorescence polarization,single-stranded DNA,,990 ± 160
ATTTATATTATTTATTCATATTTATATTTA (ssDNA),"APOBEC3F full length assumed D311A (Homo sapiens, UniProt Q8IUX4)",EMSA,single-stranded DNA,,1800 ± 425
TTCTACGAGATCGTCATGAC (ssDNA),"recA full length assumed (Escherichia coli, UniProt P0A7G6)",BLI,single-stranded DNA,together with: ATPgS,1930 ± 40
GCCTGTTGTGAGCCTCCTAACATTTAGAGCCGTGTCGTACGAACTATGACCCAGTGCCCGCTTATTCTTGTCTCCC (ssDNA; two predicted stem-loops),Oprm1 fragment (Mus musculus),fluorescence,MOR-expressing cells,not purified,28
TTAACGTCACTTGTGGGAACAGAATGTATTATTCCGTGAAGAAGG (dsDNA (Homo sapiens); blunt duplex),"NR3C1 418-506 (Homo sapiens, UniProt P04150)",EMSA,"double-stranded DNA, one strand shown",,357 ± 55
RNA 1 UAAGACACGAUGCGAUAAAAUCUGUUUGUAAAAUUUAUUAAGGGUACAAAUUGCCCUAGC / RNA 2 GCUAGGGCAAUUUGUACCCUUAAUAAAUUUUACAAACAGAUUUUAUCGCAUCGUGUCUUA (dsRNA),"CGAS 161-522 K394E (Homo sapiens, UniProt Q8N884)",fluorescence anisotropy,double-stranded RNA,,1490 ± 530
CCTACCTACCTA (dsDNA),Fibroin-modulator-binding protein-1,ITC,"double-stranded DNA, one strand shown",,3480 ± 395
CACCATCCACTAC / ATGTAGTTGTAGTGGATGGTGGTAC (dsDNA; primer-template),"POLH 1-432 R81C (Homo sapiens, UniProt Q9Y253)",fluorescence polarization,,together with: MgCl2 5 mM,18 ± 2
CTGCTCCGTCCGCCTTCGAGGAGAGGTCGGCATCTTCAAGTCAATCGGTCC (dsDNA; 5'-amino-C6 primer),SPT15/TOA1/TOA2/SUA7 1-240; 1-286; 1-122; 1-345,array,"double-stranded DNA, one strand shown",TBP:TFIIA:TFIIB ternary complex,4.26 ± 0.89
CGGUGUUGCU (ssRNA),"TARDBP 102-269 (Homo sapiens, UniProt Q13148)",BLI,RNA,,70 ± 10
AGTTGGCAAGTC (dsDNA),"NFIB 14-176 (Homo sapiens, UniProt O00712)",BLI,"double-stranded DNA, one strand shown",together with: Zn2+ 1 mM,2.09 ± 0.06
"DNA 1 CACTGGCCGTCTTACGGTCGCTCTGCTCGACG / DNA 2 CGACCGTAAGACGGCCAGTG (dsDNA; 20 bp, 3' 12 nt overhang)","RECQL 63-592 T371A (Homo sapiens, UniProt P46063)",fluorescence anisotropy,double-stranded DNA,together with: Mg2+ 3 mM,108 ± 35.4
GGATCTCGACGCTCTCCCTT (dsDNA),"RECQL 49-616 (Homo sapiens, UniProt P46063)",fluorescence anisotropy,"double-stranded DNA, one strand shown","Mg2+ 5 mM, without ADPNP",589 ± 62
TCCTGAAGGGGAGCCCTAGCTTGGTCCTATCGTCGTCAAGTCAATCGGTCC (dsDNA; 5'-amino-C6 primer),SPT15/TOA1/TOA2/SUA7 1-240; 1-286; 1-122; 1-345,array,"double-stranded DNA, one strand shown",TBP:TFIIA:TFIIB ternary complex,3.09 ± 0.77
CGCGGCTTGCGCCATTCTGACCGCGCTCTGCACGGAAAGATTTTTCAAAACGATAATCGAT (dsDNA),allR full length assumed,BLI,"double-stranded DNA, one strand shown",,98.9
ATTGATTGATTG (dsDNA),Fibroin-modulator-binding protein-1,ITC,"double-stranded DNA, one strand shown",,1810 ± 282
"TAACAGTCACCCCCCNACTAAC / GTTAGTTGGGGGGTGACTGTTA (dsDNA; blunt, abasic site with mTAP oxime)","TFAM 43-246 (Homo sapiens, UniProt Q00059)",fluorescence polarization,,apparent,0.67 ± 0.12
GTTCCTGAATATAAAAGGGGGGGGCGGGGTGGGGGTCAAGTCAATCGGTCC (dsDNA; 5'-amino-C6 primer),SPT15/TOA1/TOA2/SUA7 1-240; 1-286; 1-122; 1-345,array,"double-stranded DNA, one strand shown",TBP:TFIIA:TFIIB ternary complex,2.68 ± 0.33
ATGACATGACACGTTACGTT (dsDNA),"NHP6A full length assumed (Saccharomyces cerevisiae, UniProt P11632)",fluorescence anisotropy,"double-stranded DNA, one strand shown",together with: Mg2+ 2 mM,10.2
"CTTACGACCTAGGGTGGGTAGGGTGCATTATGTTGGTGGTCGTAAG (DNA hairpin; 8-bp stem, 30-nt loop)",F2 alpha-thrombin (Homo sapiens),BLI,folded DNA,,1.8
CTGAAGGGGGGGCTATAAAAGTTAGTGGGGGCTCCTCAAGTCAATCGGTCC (dsDNA; 5'-amino-C6 primer),SPT15/TOA1/TOA2/SUA7 1-240; 1-286; 1-122; 1-345,array,"double-stranded DNA, one strand shown",TBP:TFIIA:TFIIB ternary complex,1.12 ± 0.36
GGGTGAGGGAGTGGGTCAGGG (G-quadruplex DNA; G-quadruplex),"CCL2 24-99 (Homo sapiens, UniProt P13500)",BLI,folded DNA,,11.7
GGTGGGTGGGTG (dsDNA),Fibroin-modulator-binding protein-1,ITC,"double-stranded DNA, one strand shown",,7270
GAAGATGCCGCGAAAATTCTTTCCTTTGGCGCGGATAAAATTTCCATCAACTCTCCTGCGC (dsDNA),allR full length assumed,BLI,"double-stranded DNA, one strand shown",,45.9
TATTATTGGCACTTCTGTATAACTGGCTTTCATTCTCAAGTCAATCGGTCC (dsDNA; 5'-amino-C6 primer),SPT15/TOA1/TOA2/SUA7 1-240; 1-286; 1-122; 1-345,array,"double-stranded DNA, one strand shown",TBP:TFIIA:TFIIB ternary complex,7.86 ± 3.76
"DNA 1 GGATCTCGACGCTCTCCCTT / DNA 2 GTCGAGATCC (dsDNA; 3' 10-nt overhang, blunt end)","RECQL 49-616 D230A/R232A (Homo sapiens, UniProt P46063)",fluorescence anisotropy,double-stranded DNA,"Mg2+ 5 mM, without ADPNP",173 ± 29

# Repeated from above:
Sequence,target,assay,test system,setting,Kd [nM]
"DNA 1 CACTGGCCGTCTTACGGTCGCTCTGCTCGACG / DNA 2 CGACCGTAAGACGGCCAGTG (dsDNA; 20 bp, 3' 12 nt overhang)","RECQL 63-592 T371A (Homo sapiens, UniProt P46063)",fluorescence anisotropy,double-stranded DNA,together with: Mg2+ 3 mM,108 ± 35.4
"CTTACGACCTAGGGTGGGTAGGGTGCATTATGTTGGTGGTCGTAAG (DNA hairpin; 8-bp stem, 30-nt loop)",F2 alpha-thrombin (Homo sapiens),BLI,folded DNA,,1.8
GCTCAGTTCCCTGCTGGAAACGCCGCGGTCGTAGTAATATAGATAGGTCTGGATCAGATGTTGTTTCGGGGATTGTCAACAGCTGAGC (dsDNA),"EWSR1 1-656 (Homo sapiens, UniProt Q01844)",EMSA,"double-stranded DNA, one strand shown",,103 ± 5
